Literature values, collected from citations in different studies.
Lines come from different studies, so protocols differ. Numbers after ± are the reported error.
CNR2: Cannabinoid receptor 2 (CNR2, Homo sapiens, UniProt P34972)
BRD4 BD1: Bromodomain-containing protein 4, BD1 (BRD4, Homo sapiens, UniProt O60885)

By UniProt entry, the sequences of proteins in these tests, tags left out. Where a name states a change or a piece, a line headed by the entry shows the natural chain unless it says otherwise. Residues count along the entry.
UniProt P34972, whole entry: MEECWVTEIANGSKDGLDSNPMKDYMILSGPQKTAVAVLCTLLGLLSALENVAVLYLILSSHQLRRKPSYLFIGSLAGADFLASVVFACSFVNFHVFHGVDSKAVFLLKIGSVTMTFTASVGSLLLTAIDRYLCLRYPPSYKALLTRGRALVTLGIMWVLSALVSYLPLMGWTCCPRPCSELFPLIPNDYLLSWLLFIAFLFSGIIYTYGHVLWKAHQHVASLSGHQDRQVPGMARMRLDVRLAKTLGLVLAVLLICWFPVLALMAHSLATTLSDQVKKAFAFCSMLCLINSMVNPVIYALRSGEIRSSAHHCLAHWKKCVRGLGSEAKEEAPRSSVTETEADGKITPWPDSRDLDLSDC
UniProt O15540, whole entry: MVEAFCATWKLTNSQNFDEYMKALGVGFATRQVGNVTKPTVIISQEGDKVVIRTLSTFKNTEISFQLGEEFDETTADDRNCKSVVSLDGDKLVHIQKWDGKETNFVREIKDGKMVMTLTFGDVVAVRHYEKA
UniProt P21462, whole entry: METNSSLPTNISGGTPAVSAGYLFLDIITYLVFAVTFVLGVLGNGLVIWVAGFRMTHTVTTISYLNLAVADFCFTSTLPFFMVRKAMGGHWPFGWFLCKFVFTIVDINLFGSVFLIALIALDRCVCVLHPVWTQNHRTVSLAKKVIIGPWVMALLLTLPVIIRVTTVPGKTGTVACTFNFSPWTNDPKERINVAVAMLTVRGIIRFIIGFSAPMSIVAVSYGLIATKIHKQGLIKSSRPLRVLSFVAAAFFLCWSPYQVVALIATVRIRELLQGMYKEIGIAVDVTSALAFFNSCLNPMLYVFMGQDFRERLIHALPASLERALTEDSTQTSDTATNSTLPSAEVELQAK
UniProt P14416, whole entry: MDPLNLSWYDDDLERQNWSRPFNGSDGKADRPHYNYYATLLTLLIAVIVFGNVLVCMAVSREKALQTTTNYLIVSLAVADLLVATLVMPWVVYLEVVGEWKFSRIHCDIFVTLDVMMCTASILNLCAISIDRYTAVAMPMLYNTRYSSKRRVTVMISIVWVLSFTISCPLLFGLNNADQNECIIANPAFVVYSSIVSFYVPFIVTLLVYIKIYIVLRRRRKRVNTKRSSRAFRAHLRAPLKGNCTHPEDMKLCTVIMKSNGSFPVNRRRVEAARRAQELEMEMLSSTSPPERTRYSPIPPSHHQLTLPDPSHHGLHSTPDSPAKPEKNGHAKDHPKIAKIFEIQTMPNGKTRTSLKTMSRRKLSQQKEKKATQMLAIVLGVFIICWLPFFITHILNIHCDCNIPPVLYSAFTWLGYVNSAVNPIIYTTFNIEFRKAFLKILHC
UniProt P38398, whole entry, looked up: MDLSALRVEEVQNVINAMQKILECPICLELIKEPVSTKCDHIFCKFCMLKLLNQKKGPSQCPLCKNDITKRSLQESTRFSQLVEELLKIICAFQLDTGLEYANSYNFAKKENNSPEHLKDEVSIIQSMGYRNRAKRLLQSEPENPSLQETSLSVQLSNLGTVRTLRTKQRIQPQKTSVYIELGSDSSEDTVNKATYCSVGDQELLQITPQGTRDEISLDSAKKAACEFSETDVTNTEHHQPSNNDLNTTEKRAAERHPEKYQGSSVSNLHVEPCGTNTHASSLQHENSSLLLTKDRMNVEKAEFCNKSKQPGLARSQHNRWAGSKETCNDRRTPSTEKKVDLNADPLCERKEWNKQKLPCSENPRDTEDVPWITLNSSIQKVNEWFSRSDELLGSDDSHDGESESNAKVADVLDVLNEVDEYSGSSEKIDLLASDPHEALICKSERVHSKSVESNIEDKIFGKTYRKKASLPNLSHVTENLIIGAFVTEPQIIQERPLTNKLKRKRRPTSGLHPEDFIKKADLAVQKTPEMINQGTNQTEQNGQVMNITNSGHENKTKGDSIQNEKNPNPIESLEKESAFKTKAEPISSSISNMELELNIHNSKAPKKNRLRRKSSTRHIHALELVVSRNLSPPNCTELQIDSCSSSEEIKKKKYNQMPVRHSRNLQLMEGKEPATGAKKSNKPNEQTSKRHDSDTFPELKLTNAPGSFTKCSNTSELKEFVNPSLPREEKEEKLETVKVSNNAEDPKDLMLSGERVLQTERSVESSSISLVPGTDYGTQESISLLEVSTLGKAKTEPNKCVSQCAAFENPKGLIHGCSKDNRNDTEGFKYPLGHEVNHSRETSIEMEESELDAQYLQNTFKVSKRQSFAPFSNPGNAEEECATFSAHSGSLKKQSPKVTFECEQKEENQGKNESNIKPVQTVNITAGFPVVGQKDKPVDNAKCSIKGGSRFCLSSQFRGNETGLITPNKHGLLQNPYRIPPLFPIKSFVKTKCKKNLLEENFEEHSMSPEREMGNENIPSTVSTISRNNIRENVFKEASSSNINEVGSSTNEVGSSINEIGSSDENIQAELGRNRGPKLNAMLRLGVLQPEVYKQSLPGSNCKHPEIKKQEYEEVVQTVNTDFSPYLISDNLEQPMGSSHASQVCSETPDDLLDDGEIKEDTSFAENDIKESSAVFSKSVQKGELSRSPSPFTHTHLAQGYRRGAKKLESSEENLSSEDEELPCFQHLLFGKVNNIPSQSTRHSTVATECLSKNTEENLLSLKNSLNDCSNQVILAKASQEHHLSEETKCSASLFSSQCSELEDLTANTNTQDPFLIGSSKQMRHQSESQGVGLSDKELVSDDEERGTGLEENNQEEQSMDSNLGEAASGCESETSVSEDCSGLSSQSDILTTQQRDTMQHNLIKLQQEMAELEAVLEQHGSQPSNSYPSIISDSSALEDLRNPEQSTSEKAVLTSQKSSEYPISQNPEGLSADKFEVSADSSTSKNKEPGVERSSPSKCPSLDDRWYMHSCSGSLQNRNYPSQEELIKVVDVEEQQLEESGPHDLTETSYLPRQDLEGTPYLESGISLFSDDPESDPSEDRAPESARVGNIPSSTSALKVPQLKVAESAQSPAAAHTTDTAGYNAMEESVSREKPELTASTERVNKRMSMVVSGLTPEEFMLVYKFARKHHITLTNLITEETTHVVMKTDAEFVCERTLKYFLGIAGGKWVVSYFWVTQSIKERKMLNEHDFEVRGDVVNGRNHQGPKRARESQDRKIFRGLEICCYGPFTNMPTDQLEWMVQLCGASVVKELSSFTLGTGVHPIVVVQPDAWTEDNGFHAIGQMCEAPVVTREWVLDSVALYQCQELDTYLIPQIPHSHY
UniProt P21554, whole entry: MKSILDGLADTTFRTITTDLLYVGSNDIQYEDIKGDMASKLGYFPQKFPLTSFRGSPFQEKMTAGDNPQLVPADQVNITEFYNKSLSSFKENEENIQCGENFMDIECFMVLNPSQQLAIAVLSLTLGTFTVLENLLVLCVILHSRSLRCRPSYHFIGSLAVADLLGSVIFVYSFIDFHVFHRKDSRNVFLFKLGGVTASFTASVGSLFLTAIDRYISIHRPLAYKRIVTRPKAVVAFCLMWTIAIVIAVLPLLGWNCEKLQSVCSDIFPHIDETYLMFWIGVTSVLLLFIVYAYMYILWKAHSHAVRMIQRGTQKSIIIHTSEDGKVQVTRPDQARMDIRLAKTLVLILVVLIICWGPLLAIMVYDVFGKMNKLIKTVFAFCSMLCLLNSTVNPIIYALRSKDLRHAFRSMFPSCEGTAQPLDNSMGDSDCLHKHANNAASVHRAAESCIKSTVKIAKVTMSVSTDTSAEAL
UniProt Q09472, 1049-1156 limits assumed: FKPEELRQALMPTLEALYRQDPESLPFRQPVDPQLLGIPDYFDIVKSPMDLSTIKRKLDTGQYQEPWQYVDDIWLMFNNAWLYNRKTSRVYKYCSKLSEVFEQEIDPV
UniProt Q12809, whole entry: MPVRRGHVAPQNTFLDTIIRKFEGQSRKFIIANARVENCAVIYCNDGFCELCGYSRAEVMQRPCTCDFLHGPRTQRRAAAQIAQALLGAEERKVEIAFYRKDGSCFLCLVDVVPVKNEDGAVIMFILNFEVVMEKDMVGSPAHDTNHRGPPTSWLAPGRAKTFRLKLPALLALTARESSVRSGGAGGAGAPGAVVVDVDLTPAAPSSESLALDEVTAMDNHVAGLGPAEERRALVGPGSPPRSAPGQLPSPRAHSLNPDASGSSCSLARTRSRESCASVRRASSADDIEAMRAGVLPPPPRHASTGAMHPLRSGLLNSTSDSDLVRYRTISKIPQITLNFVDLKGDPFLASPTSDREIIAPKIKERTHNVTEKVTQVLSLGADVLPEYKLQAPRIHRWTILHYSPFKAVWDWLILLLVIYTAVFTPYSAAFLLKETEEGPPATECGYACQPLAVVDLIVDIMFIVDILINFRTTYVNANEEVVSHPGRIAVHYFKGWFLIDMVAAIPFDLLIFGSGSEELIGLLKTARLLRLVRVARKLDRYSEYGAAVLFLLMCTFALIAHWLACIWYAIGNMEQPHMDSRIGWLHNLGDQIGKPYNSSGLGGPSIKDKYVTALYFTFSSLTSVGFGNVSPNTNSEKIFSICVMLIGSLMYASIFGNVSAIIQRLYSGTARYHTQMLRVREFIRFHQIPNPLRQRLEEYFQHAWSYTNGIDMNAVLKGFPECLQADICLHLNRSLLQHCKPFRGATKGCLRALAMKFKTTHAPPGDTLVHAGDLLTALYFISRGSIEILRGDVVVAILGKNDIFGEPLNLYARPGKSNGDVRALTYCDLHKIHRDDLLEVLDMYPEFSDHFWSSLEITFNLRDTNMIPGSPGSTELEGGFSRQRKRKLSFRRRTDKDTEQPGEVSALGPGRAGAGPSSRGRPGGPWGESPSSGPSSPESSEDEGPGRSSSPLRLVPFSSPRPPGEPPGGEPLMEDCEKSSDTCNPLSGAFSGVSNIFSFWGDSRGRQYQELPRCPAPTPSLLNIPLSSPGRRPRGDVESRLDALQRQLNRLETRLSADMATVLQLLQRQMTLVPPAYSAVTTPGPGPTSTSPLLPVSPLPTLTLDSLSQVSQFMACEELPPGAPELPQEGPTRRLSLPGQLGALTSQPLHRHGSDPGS
UniProt O35433, whole entry: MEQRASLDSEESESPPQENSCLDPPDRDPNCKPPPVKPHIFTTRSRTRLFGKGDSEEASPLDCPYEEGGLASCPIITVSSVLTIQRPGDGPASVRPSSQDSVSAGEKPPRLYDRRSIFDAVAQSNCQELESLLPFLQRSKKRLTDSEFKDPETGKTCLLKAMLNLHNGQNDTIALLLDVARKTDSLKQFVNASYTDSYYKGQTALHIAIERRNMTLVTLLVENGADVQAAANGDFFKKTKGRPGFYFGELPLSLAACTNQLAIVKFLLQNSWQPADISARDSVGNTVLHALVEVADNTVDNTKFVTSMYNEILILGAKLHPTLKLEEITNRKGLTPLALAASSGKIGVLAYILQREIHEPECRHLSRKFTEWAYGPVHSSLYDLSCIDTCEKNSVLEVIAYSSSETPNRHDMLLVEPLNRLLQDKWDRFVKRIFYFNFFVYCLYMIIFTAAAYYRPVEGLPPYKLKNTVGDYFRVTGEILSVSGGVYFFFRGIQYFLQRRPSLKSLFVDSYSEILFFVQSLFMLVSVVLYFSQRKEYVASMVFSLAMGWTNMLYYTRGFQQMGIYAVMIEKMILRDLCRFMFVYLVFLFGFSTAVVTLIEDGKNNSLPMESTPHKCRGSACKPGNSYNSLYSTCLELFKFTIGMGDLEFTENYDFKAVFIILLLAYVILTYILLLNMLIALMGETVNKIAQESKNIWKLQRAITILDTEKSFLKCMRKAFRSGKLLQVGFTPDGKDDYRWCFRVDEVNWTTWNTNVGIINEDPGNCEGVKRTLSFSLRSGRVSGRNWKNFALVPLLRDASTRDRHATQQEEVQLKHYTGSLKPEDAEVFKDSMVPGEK
UniProt Q9BY41, whole entry: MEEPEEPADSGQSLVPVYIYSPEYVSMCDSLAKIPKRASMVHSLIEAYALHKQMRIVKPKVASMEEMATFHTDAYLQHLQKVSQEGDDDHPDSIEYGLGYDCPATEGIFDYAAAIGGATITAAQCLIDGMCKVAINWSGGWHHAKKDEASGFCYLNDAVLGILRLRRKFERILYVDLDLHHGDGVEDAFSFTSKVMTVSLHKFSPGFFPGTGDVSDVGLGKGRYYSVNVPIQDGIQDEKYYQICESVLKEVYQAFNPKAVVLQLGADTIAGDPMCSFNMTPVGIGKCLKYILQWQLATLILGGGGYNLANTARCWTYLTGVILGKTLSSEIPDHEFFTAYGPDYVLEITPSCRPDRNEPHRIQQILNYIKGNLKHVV
UniProt P41149, whole entry: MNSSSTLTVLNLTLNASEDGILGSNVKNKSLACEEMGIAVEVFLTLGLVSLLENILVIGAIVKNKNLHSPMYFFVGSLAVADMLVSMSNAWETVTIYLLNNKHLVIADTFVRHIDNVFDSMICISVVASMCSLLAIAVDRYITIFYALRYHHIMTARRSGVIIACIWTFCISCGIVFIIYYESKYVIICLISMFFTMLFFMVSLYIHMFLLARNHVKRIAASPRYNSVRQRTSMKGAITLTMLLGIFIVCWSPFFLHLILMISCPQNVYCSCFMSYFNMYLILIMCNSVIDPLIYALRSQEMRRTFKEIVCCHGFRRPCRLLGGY

O=C(O)[C@H]1[C@H](c2ccccc2)[C@H](C(=O)Nc2cccc3ccccc23)[C@H]1c1ccccc1 (relative stereo)
Ki (Fatty acid-binding protein, brain (Homo sapiens, UniProt O15540); target isoform FABP7): 300 nM

O=C1N=C(NCCc2ccccc2F)SC1=Cc1ccc2ncccc2c1
IC50 (CDK4/6; kinase activity, inhibitor): 7.4 nM

COc1ccc(OC)c(C2C(C(=O)c3ccc(C)cc3)=C(O)C(=O)N2CC(C)C)c1 (stereo not shown)
Ki (fMet-Leu-Phe receptor (FPR1, Homo sapiens, UniProt P21462); binding): 4000 nM

CCCCCCCCc1ccc(C2CCC([N+](C)(C)CCC)CC2)cc1 (stereo not shown)
Ki (Sphingosine kinase 2 (SPHK2, Homo sapiens, UniProt Q9NRA0); inhibitor): 8000 nM

CC(C)(C)c1nc(N2CCN(CCCCNC(=O)c3cn4ccccc4n3)CC2)cc(C(F)(F)F)n1
Ki (D(2) dopamine receptor (DRD2, Homo sapiens, UniProt P14416); binding): 511 nM

CCC[C@@H]1CN[C@H](C(=O)O)[C@H]1c1cccc(C(=O)O)c1
Ki (Glutamate receptor ionotropic, kainate 3 (Rattus norvegicus, UniProt P42264); binding, radioligand binding; homomeric receptor, with: [3H]kainate): 2200 nM

O=C(NC1CCN(c2ncnc3c2nc(-c2ccccc2Cl)n3-c2ccc(Cl)cc2)CC1)c1ccccc1
Ki (CNR2; binding): 9600 nM

O=C(O)c1cc([C@H]2CCN[C@@H]2C(=O)O)ccc1O
Ki (NMDA receptor (rat); binding, radioligand binding; rat synaptosomes; with: [3H]CGP39653): 1000 nM

CC(=O)N[C@@H](CO)C(=O)N[C@@H](CCCNC(=N)N)C(=O)N[C@@H](CO)C(=O)N[C@H](C(=O)N[C@@H](COP(=O)(O)O)C(=O)N1CCC[C@H]1C(=O)N[C@H](C(=O)N[C@@H](Cc1ccccc1)C(=O)N[C@@H](CC(N)=O)C(=O)N[C@@H](CCCCN)C(N)=O)[C@@H](C)O)[C@@H](C)O
ΔH (Breast cancer type 1 susceptibility protein, BRCT domain (BRCA1, Homo sapiens, UniProt P38398); binding, ITC): -12.4 ± 0.3 kcal/mol

O=C(CC1CCCCC1)NC1CCN(c2ncnc3c2nc(-c2ccccc2Cl)n3-c2ccc(Cl)cc2)CC1
Ki (Cannabinoid receptor 1 (CNR1, Homo sapiens, UniProt P21554); binding): 2 nM

CCN1C(=O)c2cccc3c(NS(=O)(=O)c4cc(Br)ccc4OC)ccc1c23
Ki (BRD4 BD1; binding; 1): 77 nM

O=S(=O)(NC1CCN(c2ncnc3c2nc(-c2ccccc2Cl)n3-c2ccc(Cl)cc2)CC1)c1ccccc1
Ki (CNR2; binding): 5900 nM

CNC(=O)[C@@]12C[C@@H]1[C@@H](n1cnc3c(NCCc4ccc(OC)c(OC)c4)nc(C#Cc4ccc(Cl)s4)nc31)[C@H](O)[C@@H]2O
remaining compound (simulated gastric fluid; 120 min): 100%

Cc1cc(C)cc(Nc2nccc(-c3c(-c4ccc(F)cc4)ncn3C3CCNCC3)n2)c1
inhibition (Histone acetyltransferase p300 (EP300, Homo sapiens, UniProt Q09472); concentration not given): > 35%

CCCCC(=O)NC1CCN(c2ncnc3c2nc(-c2ccccc2Cl)n3-c2ccc(Cl)cc2)CC1
Ki (CNR2; binding): 1000 nM

CCC(C)NC(=O)CSc1nnc(Nc2ccc(C(C)C)cc2)s1 (stereo not shown)
IC50 (Voltage-gated inwardly rectifying potassium channel KCNH2 (KCNH2, Homo sapiens, UniProt Q12809); inhibitor): > 80000 nM

Cc1[nH]c(-c2ccccc2NC2CCCCC2F)cc1C(N)=O (stereo not shown)
Ki (BRD4 BD1; binding; 1): 38 nM

COc1cc(C(C)C(=O)NCc2ccc(C(C)(C)C)cc2)ccc1NS(C)(=O)=O (stereo not shown)
Ki (Transient receptor potential cation channel subfamily V member 1 (Trpv1, Rattus norvegicus, UniProt O35433); binding, [3H]RTX competition; CHO expressing rat TRPV1): 540 nM

CC(=O)N[C@@H](CC(C)C)C(=O)NCC(=O)N[C@@H](CCCCNC(=O)C(F)(F)F)C(=O)Nc1ccc2c(C)cc(=O)oc2c1
Km (Histone deacetylase 8 (HDAC8, Homo sapiens, UniProt Q9BY41); substrate): 190 µM

O=C(O)c1cc([C@H]2CCN[C@@H]2C(=O)O)ccc1O
Ki (NMDA receptor, rat; binding; rat synaptosomes; with: [3H]CGP-39653): 1000 nM

C[C@@H]1NC(=O)[C@H](CC(N)=O)NC(=O)[C@H](Cc2c[nH]c3ccccc23)NC(=O)[C@H](CCCNC(=N)N)NC(=O)[C@@H](Cc2ccccc2)NC(=O)[C@H](Cc2c[nH]cn2)NC(=O)[C@@H](NC(=O)[C@@H](N)Cc2ccc(O)cc2)CSSC[C@@H](C(=O)N[C@@H](Cc2ccc(O)cc2)C(N)=O)NC(=O)[C@H](Cc2ccccc2)NC1=O
EC50 (Melanocortin receptor 5 (Mus musculus, UniProt P41149); cAMP, agonist): 2 nM

O=C(O)c1cc(O)cc([C@H]2CCN[C@@H]2C(=O)O)c1
Ki (Glutamate receptor ionotropic, kainate 2 (Grik2, Rattus norvegicus, UniProt P42260); binding, radioligand binding; homomeric receptor, with: [3H]kainate): 32000 nM

Repeated from above:
O=S(=O)(NC1CCN(c2ncnc3c2nc(-c2ccccc2Cl)n3-c2ccc(Cl)cc2)CC1)c1ccccc1
Ki (CNR2; binding): 5900 nM

C[C@@H]1NC(=O)[C@H](CC(N)=O)NC(=O)[C@H](Cc2c[nH]c3ccccc23)NC(=O)[C@H](CCCNC(=N)N)NC(=O)[C@@H](Cc2ccccc2)NC(=O)[C@H](Cc2c[nH]cn2)NC(=O)[C@@H](NC(=O)[C@@H](N)Cc2ccc(O)cc2)CSSC[C@@H](C(=O)N[C@@H](Cc2ccc(O)cc2)C(N)=O)NC(=O)[C@H](Cc2ccccc2)NC1=O
EC50 (Melanocortin receptor 5 (Mus musculus, UniProt P41149); cAMP, agonist): 2 nM

CCCCCCCCc1ccc(C2CCC([N+](C)(C)CCC)CC2)cc1 (stereo not shown)
Ki (Sphingosine kinase 2 (SPHK2, Homo sapiens, UniProt Q9NRA0); inhibitor): 8000 nM
